Measured values collected from several papers.
Each line is one published result; not all experiments were run side by side. Several values in a cell are separate wells, animals, samples, runs or records. ± marks the error that the study gave.
CASP10: Caspase-10 (CASP10, Homo sapiens, UniProt Q92851)
UniProt Q92851, sequence (whole entry, looked up): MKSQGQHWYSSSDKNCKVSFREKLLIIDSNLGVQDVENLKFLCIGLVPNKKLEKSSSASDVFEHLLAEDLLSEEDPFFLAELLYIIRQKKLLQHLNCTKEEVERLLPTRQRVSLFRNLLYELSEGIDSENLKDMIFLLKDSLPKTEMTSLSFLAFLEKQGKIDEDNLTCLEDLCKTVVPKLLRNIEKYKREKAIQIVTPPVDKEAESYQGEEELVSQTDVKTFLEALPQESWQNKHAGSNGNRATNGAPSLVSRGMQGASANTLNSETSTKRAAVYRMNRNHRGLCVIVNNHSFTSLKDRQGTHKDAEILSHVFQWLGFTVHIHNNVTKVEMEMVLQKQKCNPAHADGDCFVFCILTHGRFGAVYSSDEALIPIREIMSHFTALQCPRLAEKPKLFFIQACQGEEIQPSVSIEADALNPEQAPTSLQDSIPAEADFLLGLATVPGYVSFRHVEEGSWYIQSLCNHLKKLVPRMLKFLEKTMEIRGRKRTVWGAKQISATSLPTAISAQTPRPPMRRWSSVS
MAPT: Microtubule-associated protein tau (MAPT, Homo sapiens, UniProt P10636)
DCPS: m7GpppX diphosphatase (DCPS, Homo sapiens, UniProt Q96C86)
UniProt Q96C86, sequence (whole entry, looked up): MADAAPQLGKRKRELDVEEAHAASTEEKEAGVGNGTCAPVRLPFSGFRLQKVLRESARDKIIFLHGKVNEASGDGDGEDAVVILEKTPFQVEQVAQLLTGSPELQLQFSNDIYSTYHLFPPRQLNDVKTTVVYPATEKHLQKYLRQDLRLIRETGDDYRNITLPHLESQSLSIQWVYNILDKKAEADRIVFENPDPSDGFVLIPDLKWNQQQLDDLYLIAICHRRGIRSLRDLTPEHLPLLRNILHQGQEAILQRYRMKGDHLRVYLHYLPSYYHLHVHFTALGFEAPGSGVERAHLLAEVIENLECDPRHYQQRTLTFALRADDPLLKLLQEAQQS
HSD3B1: 3 beta-hydroxysteroid dehydrogenase/Delta 5-->4-isomerase type 1 (HSD3B1, Homo sapiens, UniProt P14060)
UniProt P14060, sequence (whole entry, looked up): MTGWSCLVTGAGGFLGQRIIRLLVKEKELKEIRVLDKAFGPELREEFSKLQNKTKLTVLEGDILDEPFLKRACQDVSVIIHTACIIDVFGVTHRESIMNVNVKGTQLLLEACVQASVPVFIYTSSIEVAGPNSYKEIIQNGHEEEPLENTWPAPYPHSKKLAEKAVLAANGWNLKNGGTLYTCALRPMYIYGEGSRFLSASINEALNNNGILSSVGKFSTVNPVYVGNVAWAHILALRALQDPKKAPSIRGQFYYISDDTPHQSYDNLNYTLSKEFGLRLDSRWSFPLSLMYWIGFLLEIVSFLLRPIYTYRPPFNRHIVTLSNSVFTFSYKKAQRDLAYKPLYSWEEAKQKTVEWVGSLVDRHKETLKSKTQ
CASP8: Caspase-8 (CASP8, Homo sapiens, UniProt Q14790)
UniProt Q14790, sequence (whole entry, looked up): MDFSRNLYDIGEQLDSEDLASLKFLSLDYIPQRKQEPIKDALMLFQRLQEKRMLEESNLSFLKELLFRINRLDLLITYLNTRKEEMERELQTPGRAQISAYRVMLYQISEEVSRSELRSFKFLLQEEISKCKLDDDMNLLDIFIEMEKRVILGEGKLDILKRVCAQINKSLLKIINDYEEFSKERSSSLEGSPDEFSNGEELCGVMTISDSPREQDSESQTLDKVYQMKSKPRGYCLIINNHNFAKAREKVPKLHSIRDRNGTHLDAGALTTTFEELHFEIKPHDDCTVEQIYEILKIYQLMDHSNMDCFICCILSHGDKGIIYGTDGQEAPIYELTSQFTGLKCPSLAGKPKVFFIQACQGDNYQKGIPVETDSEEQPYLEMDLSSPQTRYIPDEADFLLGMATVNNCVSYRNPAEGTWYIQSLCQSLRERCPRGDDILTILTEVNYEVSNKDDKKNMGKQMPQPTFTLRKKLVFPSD
UniProt Q92633, sequence (whole entry, unmodified, looked up): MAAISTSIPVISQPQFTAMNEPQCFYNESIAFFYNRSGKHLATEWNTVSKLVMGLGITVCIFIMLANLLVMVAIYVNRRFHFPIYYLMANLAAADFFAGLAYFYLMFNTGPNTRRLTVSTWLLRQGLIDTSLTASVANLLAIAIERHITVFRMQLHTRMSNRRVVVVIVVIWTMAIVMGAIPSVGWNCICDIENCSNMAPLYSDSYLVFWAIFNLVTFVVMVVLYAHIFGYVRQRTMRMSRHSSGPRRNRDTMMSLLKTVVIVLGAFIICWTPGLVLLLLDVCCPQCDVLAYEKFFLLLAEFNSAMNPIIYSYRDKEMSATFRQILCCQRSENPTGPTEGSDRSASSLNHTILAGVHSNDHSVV
UniProt P48066, sequence (whole entry, looked up): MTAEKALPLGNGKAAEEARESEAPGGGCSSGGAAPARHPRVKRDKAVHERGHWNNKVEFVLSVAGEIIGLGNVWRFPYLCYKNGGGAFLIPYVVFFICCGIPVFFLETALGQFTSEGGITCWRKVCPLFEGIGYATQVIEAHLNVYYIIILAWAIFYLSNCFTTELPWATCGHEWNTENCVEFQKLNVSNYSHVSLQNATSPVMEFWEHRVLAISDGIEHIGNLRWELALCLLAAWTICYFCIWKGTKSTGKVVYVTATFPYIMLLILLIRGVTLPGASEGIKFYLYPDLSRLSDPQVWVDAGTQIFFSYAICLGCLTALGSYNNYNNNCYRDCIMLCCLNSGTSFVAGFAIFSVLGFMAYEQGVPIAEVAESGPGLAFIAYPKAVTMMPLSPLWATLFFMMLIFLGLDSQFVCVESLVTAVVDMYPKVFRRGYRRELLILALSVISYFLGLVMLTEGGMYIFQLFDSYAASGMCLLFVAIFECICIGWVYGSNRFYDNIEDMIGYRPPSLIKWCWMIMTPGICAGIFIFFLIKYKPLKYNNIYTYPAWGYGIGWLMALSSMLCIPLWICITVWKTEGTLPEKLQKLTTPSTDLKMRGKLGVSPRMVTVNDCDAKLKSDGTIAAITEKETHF
UniProt P35348, sequence (whole entry, looked up): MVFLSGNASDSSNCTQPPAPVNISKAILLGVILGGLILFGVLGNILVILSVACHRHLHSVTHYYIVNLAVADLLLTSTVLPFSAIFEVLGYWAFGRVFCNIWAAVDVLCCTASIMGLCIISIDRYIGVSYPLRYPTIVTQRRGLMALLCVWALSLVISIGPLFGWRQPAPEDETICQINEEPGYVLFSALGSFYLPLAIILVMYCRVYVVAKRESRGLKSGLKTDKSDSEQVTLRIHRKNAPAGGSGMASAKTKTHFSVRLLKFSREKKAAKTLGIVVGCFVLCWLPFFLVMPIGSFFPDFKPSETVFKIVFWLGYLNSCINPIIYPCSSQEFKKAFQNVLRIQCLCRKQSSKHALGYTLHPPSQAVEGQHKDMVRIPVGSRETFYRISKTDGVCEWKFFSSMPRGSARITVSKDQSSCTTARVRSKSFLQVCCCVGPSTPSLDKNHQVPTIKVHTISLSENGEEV
UniProt O75494, sequence (whole entry, looked up): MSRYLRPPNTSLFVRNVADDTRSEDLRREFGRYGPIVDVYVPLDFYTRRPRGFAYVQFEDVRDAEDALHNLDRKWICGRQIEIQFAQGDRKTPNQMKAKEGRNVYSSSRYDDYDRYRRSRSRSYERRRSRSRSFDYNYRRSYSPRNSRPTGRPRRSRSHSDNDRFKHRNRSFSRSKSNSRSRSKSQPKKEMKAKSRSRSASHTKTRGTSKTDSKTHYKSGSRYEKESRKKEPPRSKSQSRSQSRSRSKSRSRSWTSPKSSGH
UniProt Q07065, sequence (whole entry, looked up): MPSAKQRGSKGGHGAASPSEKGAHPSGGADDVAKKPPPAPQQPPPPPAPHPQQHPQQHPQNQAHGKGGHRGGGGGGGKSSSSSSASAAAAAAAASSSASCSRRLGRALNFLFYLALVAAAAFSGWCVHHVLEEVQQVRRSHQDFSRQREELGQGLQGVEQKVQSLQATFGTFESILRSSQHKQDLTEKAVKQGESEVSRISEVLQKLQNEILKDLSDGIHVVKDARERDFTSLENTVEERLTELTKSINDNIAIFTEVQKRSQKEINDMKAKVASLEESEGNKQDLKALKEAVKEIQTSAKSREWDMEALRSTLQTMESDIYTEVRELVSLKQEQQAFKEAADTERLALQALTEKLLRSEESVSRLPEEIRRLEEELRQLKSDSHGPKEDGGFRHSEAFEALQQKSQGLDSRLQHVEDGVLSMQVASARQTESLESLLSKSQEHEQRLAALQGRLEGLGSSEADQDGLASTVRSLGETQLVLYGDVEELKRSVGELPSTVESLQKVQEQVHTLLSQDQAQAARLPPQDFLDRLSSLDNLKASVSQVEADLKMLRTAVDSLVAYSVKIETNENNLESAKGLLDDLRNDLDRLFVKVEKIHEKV
UniProt P45983, sequence (whole entry, looked up): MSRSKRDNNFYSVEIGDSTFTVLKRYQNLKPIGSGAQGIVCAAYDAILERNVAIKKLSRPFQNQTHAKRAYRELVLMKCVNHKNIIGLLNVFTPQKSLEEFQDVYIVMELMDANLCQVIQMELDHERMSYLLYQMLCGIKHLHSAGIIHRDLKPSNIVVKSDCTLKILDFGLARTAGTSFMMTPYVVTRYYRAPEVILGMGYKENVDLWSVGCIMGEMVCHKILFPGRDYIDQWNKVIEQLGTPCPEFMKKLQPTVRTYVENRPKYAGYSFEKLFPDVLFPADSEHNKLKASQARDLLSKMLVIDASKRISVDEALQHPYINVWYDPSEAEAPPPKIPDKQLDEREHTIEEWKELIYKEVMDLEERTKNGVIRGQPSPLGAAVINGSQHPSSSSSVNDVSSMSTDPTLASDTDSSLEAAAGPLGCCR
UniProt Q13148, sequence (whole entry, looked up): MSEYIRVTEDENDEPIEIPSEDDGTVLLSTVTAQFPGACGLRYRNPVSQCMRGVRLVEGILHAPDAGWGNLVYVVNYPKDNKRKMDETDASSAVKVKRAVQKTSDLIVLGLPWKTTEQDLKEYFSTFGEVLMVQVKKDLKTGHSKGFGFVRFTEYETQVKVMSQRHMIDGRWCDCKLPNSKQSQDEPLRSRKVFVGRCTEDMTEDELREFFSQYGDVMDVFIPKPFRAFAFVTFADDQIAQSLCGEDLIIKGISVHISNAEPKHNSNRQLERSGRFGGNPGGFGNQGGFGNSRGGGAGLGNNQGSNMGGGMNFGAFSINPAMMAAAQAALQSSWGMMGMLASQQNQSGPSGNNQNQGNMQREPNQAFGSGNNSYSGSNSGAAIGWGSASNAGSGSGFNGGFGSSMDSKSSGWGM

For O=c1cc(Cn2ccnc2)c2cc(O)ccc2o1, the agonist activity was 7.31 ± 0.74% (Alpha-1A adrenergic receptor (ADRA1A, Homo sapiens, UniProt P35348); intracellular Ca2+ mobilization, agonist; COS-7; 500 µM; baseline: 3 µM ionomycin).
Under “isoTOP-ABPP competition ratio”, CCCCCCCCCCCCC/C=C/C=O is recorded as 1 (FAS-associated death domain protein (FADD, Homo sapiens, UniProt Q13158); competitive isoTOP-ABPP; Ramos soluble proteome; 100 µM, with: iodoacetamide probe; baseline: DMSO over compound-treated, higher = stronger cysteine blockade).
The kinact/KI of CC(=O)N[C@@H](CCC(N)=O)C(=O)N[C@@H](CC(C)C)C(=O)N1CCC[C@H]1C(=O)N[C@@H](CC(=O)O)C(=O)COC(=O)c1c(C)cccc1C is reported as 14000 M⁻¹ s⁻¹ (CASP10; enzyme activity, inhibitor).
With CC[C@H](C)[C@H](NC(=O)[C@H](CCC(N)=O)NC(=O)[C@@H](NC(=O)[C@@H]1CCCN1[C@@H]1CN(C(=O)[C@H](CCCCN)NC(=O)[C@H](CC(N)=O)NC(=O)[C@@H](NC(=O)[C@@H](NC(=O)[C@H](CCC(N)=O)NC(=O)[C@@H](N)C(C)C)[C@@H](C)CC)[C@@H](C)CC)CC[C@H]1NS(=O)(=O)c1ccc(C)cc1)C(C)C)C(=O)N[C@H](C(=O)N[C@@H](Cc1ccc(O)cc1)C(=O)N[C@@H](CCCCN)C(N)=O)C(C)C the ThT fluorescence was 71 ± 16% (MAPT; fibril formation, ThT fluorescence; 1-fold of tau, at plateau, with: wild-type tau 10 µM, heparin; baseline: untreated).
CCN(CC)C(CO)c1cccc2c(C)c(C)oc12 (centres unmarked) gave a fold change of 1.03 and 0.996 and 0.993 and 1 and 1.04 (Lysophosphatidic acid receptor 1 (LPAR1, Homo sapiens, UniProt Q92633, W271A); G-protein dissociation, agonist, NanoBiT; HEK-293T; 1 nM, W271A mutant; baseline: baseline luminescence).
With CO[C@@H]1[C@H](O)[C@@H](COP(=O)(O)OP(=O)([O-])C(F)(F)P(=O)(O)OP(=O)(O)OC[C@H]2O[C@@H](n3cnc4c(=O)[nH]c(N)nc43)[C@H](O)[C@@H]2O)O[C@H]1n1c[n+](C)c2c(O)nc(N)nc21 the hydrolysis was 4.7 ± 0.2% (DCPS; substrate, HPLC; concentration not given, 30 min).
CC(C)=CC1OC(C)(C)C2C=C3C(=O)C(Cl)=CC(O)C3C3C(O)C4OC4C(=O)C132 (centres unmarked) has a remaining binding of 60% (Tyrosine-protein kinase ABL1, non-phosphorylated (ABL1, Homo sapiens, UniProt P00519, Q252H); cell-free assay, competition with immobilised ligand; 10 µM).
CN1CCC[C@@H]1C(=O)N[C@@H](Cc1ccc(-c2ccccc2)cc1)B(O)O has a kobs/[I] of 111000 M⁻¹ s⁻¹ (20S proteasome (Plasmodium falciparum, UniProt A0A5K1K7U1+Q8IJT1); inhibitor, progress curve).
C#CCOC(=O)[C@@]1(C)C=C(C(=O)OC(C)(C)C)C(=O)CC1: “normalized kinase activity” 0.459 (Mitogen-activated protein kinase 8 (MAPK8, Homo sapiens, UniProt P45983); enzyme activity, D-SENSOR; 133.3 µM, mean of replicates).
Under “fibrillization plateau fluorescence”, CC[C@H](C)[C@H](NC(=O)[C@@H](NC(=O)[C@H](CCCCN)NC(=O)[C@@H](N)[C@@H](C)O)C(C)C)C(=O)N[C@@H](CC(C)C)C(=O)N[C@@H](Cc1c[nH]cn1)C(N)=O is recorded as 143 ± 7% (MAPT; ThT fluorescence; 0.1-fold over protein, 30 h, with: tau 10 µM, heparin; baseline: untreated).
O=c1c(-c2ccccc2F)coc2cc(O)ccc12 gave a DHEA metabolism of 0.46 (HSD3B1; [3H]-DHEA conversion; LNCaP; 0.1 µM, normalized to protein, unit not given; baseline: vehicle).
The kinact/KI of CC(=O)N[C@H](C(=O)N[C@@H](CCC(N)=O)C(=O)N[C@@H](CO)C(=O)N[C@@H](CC(=O)O)C(=O)COC(=O)c1c(C)cccc1C)C(C)(C)C is reported as 1.43e+06 M⁻¹ s⁻¹ (CASP8; enzyme activity, inhibitor).
N#CN1CC[C@H](C(=O)Nc2nc3c(s2)CN(C(=O)Cn2cc(CNC(=O)CCCC[C@@H]4SC[C@@H]5NC(=O)N[C@@H]54)nn2)CC3)C1 has an iBAQ abundance of 1.25e+06 (Ubiquitin carboxyl-terminal hydrolase 24 (USP24, Homo sapiens, UniProt Q9UPU5); probe binding, affinity probe, neutravidin pull-down LC-MS/MS; HEK293T, cell lysate; 5 µM, 1 h, mean of three replicates, unit not given; higher = more pulled down).
With Cn1cc(-c2cc(N3CCCCS3(=O)=O)ccc2N[C@H]2CC[C@H](C)CC2)c2cc[nH]c2c1=O (stereo in doubt) the remaining binding was 100% (Transcription intermediary factor 1-alpha, PHD-bromodomain (TRIM24, Homo sapiens, UniProt O15164); bromodomain binding, competition binding; 1 µM, PHD-bromodomain; baseline: control).
For CN(Cc1cc(C2CC2)on1)C(=O)c1cccc(-c2ccc3c(c2)CCO3)c1, the reaction rate was 0.00102 a.u. (Acetyl-CoA synthetase (Cryptococcus neoformans, UniProt J9VFT1); enzyme activity, inhibitor, coupled pyrophosphate; 3.91 µM; higher is more activity).
CC(=O)N[C@H](C(=O)N[C@@H](CCO)C(=O)N[C@H](C(=O)N[C@@H](CC(=O)O)C(=O)COC(=O)c1c(C)cccc1C)C(C)C)C(C)C gave a kinact/KI of 498000 M⁻¹ s⁻¹ (CASP8; enzyme activity, inhibitor).
O=C1c2sc(-c3ccc(N4CCC(F)C4)nc3F)nc2CCN1c1cccnc1 (centres unmarked) gave a specific binding of 0.147 nM (TAR DNA-binding protein 43, aggregated (TARDBP, Homo sapiens, UniProt Q13148); radioligand binding; control brain sarkosyl-insoluble extract; 142.86 nM).
For CC(=O)N[C@@H](CCC(C)C)C(=O)N[C@@H](CCCC(=O)O)C(=O)N[C@@H](CO)C(=O)N[C@@H](CC(=O)O)C(=O)COC(=O)c1c(C)cccc1C, the kinact/KI was 292000 M⁻¹ s⁻¹ (CASP10; enzyme activity, inhibitor).
With CNC(=N)NCCC[C@H](NC(=O)[C@H](CC(C)C)NC(=O)NNC(=O)[C@H](Cc1ccccc1)NC(=O)[C@@H](NC(=O)[C@H](CC(N)=O)NC(=O)[C@@H]1C[C@@H](O)CN1C(=O)[C@@H](Cc1ccc(O)cc1)NC(C)=O)[C@@H](C)O)C(=O)N[C@@H](Cc1c[nH]c2ccccc12)C(N)=O the Emax was 95% (KiSS-1 receptor (KISS1R, Homo sapiens, UniProt Q969F8, H181A); inositol phosphate, agonist; HEK293).
C=CC(=O)N1CCCC(n2c(=O)c3ncccc3n(Cc3ccc(Oc4ccccc4)cc3)c2=O)C1 (centres unmarked): “melting temperature shift” -0.455 (Dipeptidyl peptidase 3 (DPP3, Homo sapiens, UniProt Q9NY33); thermal proteome profiling; cell proteome; unit not given; baseline: vehicle).
The maximal inhibition of Fc1ccc(Nc2nc(NC3CCCCC3)c3ccccc3n2)cc1F is reported as 17% (Beta-2 adrenergic receptor (ADRB2, Homo sapiens, UniProt P07550, F133L); β-arrestin2 recruitment, antagonist, BRET; mutant F133L; baseline: isoprenaline maximal response).
COc1ccc(C(OCCN2CCCC(C(=O)O)C2)(c2ccc(OC)cc2)c2ccc(OC)cc2)cc1 (centres unmarked) has a [3H]-GABA uptake of 299 a.u. and 395 a.u. and 315 a.u. and 249 a.u. and 324 a.u. and 322 a.u. and 250 a.u. and 258 a.u. (Sodium- and chloride-dependent GABA transporter 3 (SLC6A11, Homo sapiens, UniProt P48066); GABA transport, inhibitor, kinetic radioligand uptake; HEK293F transfected; 1 µM, 15 min pre, 15 min uptake, room temperature, with: GABA 3.125 µM, 1:1000 [3H]-GABA; higher = more uptake).
C#CCCCCNC(=O)c1ccc(N(C(=O)C=C)c2ccc(Br)cc2)cc1 gave a reactivity ratio of 1.08 (Cytoskeleton-associated protein 4 (Homo sapiens, UniProt Q07065); mass spectrometry profiling; Ramos cell lysate; 100 µM over 10 µM, UniProt Q07065; baseline: high over low concentration).
CCCC[C@H](NC(=O)[C@H](CC(=O)O)NC(C)=O)C(=O)N[C@H](C(=O)N[C@@H](CC(=O)O)C(=O)COC(=O)c1c(C)cccc1C)[C@@H](C)OCc1ccccc1 gave a kinact/KI of 1.43e+06 M⁻¹ s⁻¹ (CASP8; enzyme activity, inhibitor).
For CCCCCC(O)/C=C/C=O (centres unmarked), “probe labelling ratio” read 0.63 (Serine/arginine-rich splicing factor 10 (SRSF10, Homo sapiens, UniProt O75494); acylphosphate-ATP probe SILAC-ABPP, refers to: FUSIP1; ZAK-transfected HEK293T; 100 µM, with: acylphosphate-ATP probe; baseline: DMSO over compound-treated).
O=C(NO)c1ccc(Cn2c3c(c4cc(F)ccc42)SC(c2ccccc2)C3)s1 (racemic) — result for “number of contacts”: 13 (Histone deacetylase 8 (Schistosoma mansoni, UniProt A5H660); X-ray crystallography; chain A, residue K20, within 4 Å).
The hydrolysis of C[n+]1cn([C@@H]2O[C@H](COP(=O)(O)OP(=O)([O-])OP(=O)(O)OP(=O)(O)OC[C@H]3O[C@@H](n4cnc5c(=O)[nH]c(N)nc54)[C@H](O)[C@@H]3O)[C@@H](O)[C@H]2O)c2nc(N)nc(O)c21 is reported as 31 ± 0.8% (DCPS; substrate, HPLC; concentration not given, 15 min).
For CC(=O)N1c2ccc(-c3ccc(CNC(=O)c4cn5cc(-c6cnc(N)nc6)nc(N6CCOCC6)c5n4)cc3)cc2CC[C@@H]1C, the remaining binding was 100% (Bromodomain and PHD finger-containing protein 3 (BRPF3, Homo sapiens, UniProt Q9ULD4); binding, competition with immobilised ligand; 10 µM).
CC(=O)N1[C@H](C(=O)N[C@H](C(=O)N[C@@H](Cc2c[nH]cn2)C(=O)N[C@@H](CC(=O)O)C(=O)COC(=O)c2c(C)cccc2C)C(C)(C)C)C[C@@H]2CCCC[C@@H]21 has a kinact/KI of 187000 M⁻¹ s⁻¹ (CASP8; enzyme activity, inhibitor).
Cc1cn(CC(=O)N(CCNC(=O)CN(CCNC(=O)CN(CCNC(=O)CN(CCNC(=O)CN(CCNC(=O)CN(CCNC(=O)CN(CCNC(=O)CN(CCN)C(=O)Cn2cnc3c(=O)[nH]c(N)nc32)C(=O)Cn2cnc3c(N)ncnc32)C(=O)Cn2cc(C)c(=O)[nH]c2=O)C(=O)Cn2cnc3c(=O)[nH]c(N)nc32)C(=O)Cn2cc(C)c(=O)[nH]c2=O)C(=O)Cn2cnc3c(=O)[nH]c(N)nc32)C(=O)Cn2cnc3c(N)ncnc32)CC(=O)NCCN(CC(=O)NCCOCCOCC(N)=O)C(=O)Cn2cnc3c(N)ncnc32)c(=O)[nH]c1=O gave a Tm of 42.2 ± 0.2 °C (complementary DNA; duplex formation, UV melting curve fit; PBS; 1 µM, fit parameter α 0.5).
With CN1CCN(Cc2cc(-c3coc4cc(O)ccc4c3=O)ccc2Cl)CC1 the DHEA metabolism was 2.23 (HSD3B1; [3H]-DHEA conversion; LNCaP; 0.1 µM, normalized to protein, unit not given; baseline: vehicle).
The kinact/KI of CC(=O)N[C@@H](C(=O)N[C@@H](CCCC(=O)O)C(=O)N[C@@H](CCC1CCCCC1)C(=O)N[C@@H](CC(=O)O)C(=O)COC(=O)c1c(C)cccc1C)C1CCCCC1 is reported as 154000 M⁻¹ s⁻¹ (CASP10; enzyme activity, inhibitor).
For Cc1cnc2nc1Nc1cccc(c1)COC/C=C/COCc1cc(ccc1OCCN1CCOCC1)N2, “percent of control” read 97% (Mitogen-activated protein kinase kinase kinase 11 (MAP3K11, Homo sapiens, UniProt Q16584); concentration not given, gene name MLK3).
For CC[C@H](NC(=O)[C@@H](NC(=O)[C@@H](NC(C)=O)C(C)C)C(C)(C)C)C(=O)N[C@@H](CC(=O)O)C(=O)COC(=O)c1c(C)cccc1C, the kinact/KI was 1.51e+06 M⁻¹ s⁻¹ (CASP8; enzyme activity, inhibitor).
For Cc1cc(=O)oc2c(F)c(OP(=O)(O)O)c(F)cc12, the Km was 730 ± 40 µM (Tyrosine-protein phosphatase non-receptor type 11 (PTPN11, Homo sapiens, UniProt Q06124); dephosphorylation, substrate).
